Experimental data collected from several papers.
Each line is one published result; not all experiments were run side by side. ± gives the spread as reported.

COc1ccc2cc(/C=N/n3c(C)nc4ccc(Br)cc4c3=O)ccc2c1  IC50 (LoVo; cytotoxicity, LDH release; 24 h, 50% viability reduction): 682 ± 8.38 µM
Oc1ccc2c3c(cnc2c1)-c1ccc(C(F)(F)F)cc1O[C@@H]3c1ccc(OCCN2CC(CF)C2)cc1  IC50 (ER-negative breast cancer cells; cell growth; two doubling times): > 2 µM
CSCC[C@H](NC(=O)[C@@H](N)CCSC)C(=O)N[C@@H](CCCNC(=N)N)C(=O)N[C@@H](Cc1c[nH]c2ccccc12)C(=O)N[C@@H](CO)C(=O)N[C@@H](CCCNC(=N)N)C(=O)N[C@@H](CCCCN)C(=O)N[C@@H](CCSC)C(=O)N1CCC[C@H]1C(=O)N[C@@H](CS)C(=O)N[C@H](C(=O)N[C@@H](CO)C(N)=O)C(C)C  IC50 (SUP-T1; Erk phosphorylation, inhibitor, phospho flow cytometry; with: CXCL12 100 ng/mL): 7.3 ± 3.05 µM
CCCCN1C[C@H](O)[C@@H](O)[C@@H](O)[C@H]1CO  IC50 (sample BC patient fibroblasts; Gb3 level lowering, LC-MS/MS, item: Gb3 d18:1/18:0; 216 h): 33.1 µM
C=CC(=O)Nc1cc2c(Nc3ccc(OCc4ccccn4)c(Cl)c3)ncnc2cc1OCCN1CCOCC1  IC50 (NCI-H2073 ASV knock-in; cell proliferation, CellTiter-Glo; 72 h, geometric mean): 0.0991 µM
C=CC(=O)Nc1cc(Nc2nccc(-c3cn(C)c4ccccc34)n2)c(OC)cc1N(C)CCN(C)C  IC50 (PC-9; cell growth; 72 h): 0.006 ± 0.0024 µM
CNC(=O)c1ncn2c(NCc3c(F)ccc4c3CCO4)ncc(-c3ccccc3)c12  IC50 (KARPAS-422; concentration not given, 168 h): 0.0515 ± 0.0007 µM
COc1ccc(F)cc1C(=O)NCc1ccc(-c2nn([C@@H](C)C(F)(F)F)c(N)c2C(N)=O)cc1  IC50 (Rec1; calcium flux; with: anti-IgM): 0.0086 µM
CSCC[C@H](NC(=O)CN)C(=O)N[C@@H](CCCNC(=N)N)C(=O)N[C@@H](Cc1c[nH]c2ccccc12)C(=O)N[C@@H](CO)C(=O)N[C@@H](CCCNC(=N)N)C(=O)N[C@@H](CCCCN)C(=O)N[C@@H](CCSC)C(=O)N1CCC[C@H]1C(=O)N[C@@H](CS)C(=O)N[C@H](C(=O)N[C@@H](CO)C(N)=O)C(C)C  IC50 (SUP-T1; Erk phosphorylation, inhibitor, phospho flow cytometry; with: CXCL12 100 ng/mL): > 100 µM
C=CC(=O)Nc1cc(Nc2nccc(-c3cn(C)c4ccccc34)n2)c(OC)cc1N(C)CCN(C)C  IC50 (Ba/F3 EGFR L861Q; cell proliferation, CellTiter-Glo; 72 h): 0.0137 ± 0.00091 µM
COC(=O)CN=c1scc(-c2ccccc2)n1-c1ccc(OC)cc1  IC50 (Panc 03.27; cell viability, MTT; 72 h): 11.5 µM
CC[C@H](C)[C@H](NC(C)=O)C(=O)N[C@@H](CC(C)C)C(=O)N[C@@H](CCCNC(=N)N)C(=O)N[C@@H](Cc1c[nH]c2ccccc12)C(=O)N[C@@H](CO)C(=O)N[C@@H](CCCNC(=N)N)C(=O)N[C@@H](CCCCN)C(=O)N[C@@H](CC(C)C)C(=O)N1CCC[C@H]1C(=O)N[C@@H](CS)C(=O)N[C@H](C(=O)N[C@@H](CO)C(N)=O)C(C)C  IC50 (SUP-T1; Erk phosphorylation, inhibitor, phospho flow cytometry; with: CXCL12 100 ng/mL): 42.1 ± 29.8 µM
COc1cccc2c1C(=O)c1c(O)c3c(c(O)c1C2=O)C[C@@](O)(C(=O)CO)C[C@@H]3O[C@H]1C[C@H](N)[C@H](O)[C@H](C)O1  IC50 (MCF7/ADR; cell viability, MTT; 24 h): 17.6 ± 0.76 µg/mL
COc1ccc2c(c1)NC(=O)CN2c1nc(C)nc2c1CCC2  IC50 (PDX-derived, HCI-10-Luc2, taxane refractory; cell growth, MTS): 0.001 to 0.004 µM
Cc1c(C(=O)O)ccc2c3n(nc12)[C@@H]1[C@H](C3)N(CC2CC2)[C@@]2(C(=O)Nc3cc(Cl)ccc32)[C@H]1c1cccc(Cl)c1F  IC50 (Rh18 (MDM2-amplified); cell growth, alamarBlue; 120 h): 0.01 µM
Cc1cc(Nc2ncnc3ccc(NC4=NC(C)(C)CO4)cc23)ccc1Oc1ccn2ncnc2c1  IC50 (Ba/F3 expressing HER2 wild type; cell growth, inhibitor, CellTiter-Glo): 0.0553 µM
CSCC[C@H](N)C(=O)N[C@H](CC(C)C)C(=O)N[C@@H](CCCNC(=N)N)C(=O)N[C@@H](Cc1c[nH]c2ccccc12)C(=O)N[C@@H](CO)C(=O)N[C@@H](CCCNC(=N)N)C(=O)N[C@@H](CCCCN)C(=O)N[C@@H](CC(C)C)C(=O)N1CCC[C@H]1C(=O)N[C@@H](CS)C(=O)N[C@H](C(=O)N[C@@H](CO)C(N)=O)C(C)C  IC50 (SUP-T1; Erk phosphorylation, inhibitor, phospho flow cytometry; with: CXCL12 100 ng/mL): > 100 µM
C=CC(=O)N1CCC(COCC(=O)N2CCN(c3nc(-c4cnc(N)nc4C(F)F)nc(N4CCOC[C@@H]4C)n3)CC2)CC1  IC50 (PC-3; western blot, item: phospho-PKB/Akt Ser473; 2 h): 0.0974 µM
CSCC[C@H](NC(=O)[C@H](CCCCN)NC(=O)[C@H](CCCNC(=N)N)NC(=O)[C@H](CO)NC(=O)[C@H](Cc1c[nH]c2ccccc12)NC(=O)[C@H](CCCNC(=N)N)NC(=O)[C@H](CC(C)C)NC(=O)[C@@H](CO)NC(C)=O)C(=O)N1CCC[C@H]1C(=O)N[C@@H](CS)C(=O)N[C@H](C(=O)N[C@@H](CO)C(N)=O)C(C)C  IC50 (SUP-T1; Erk phosphorylation, inhibitor, phospho flow cytometry; with: CXCL12 100 ng/mL): > 100 µM
CS(=O)(=O)CCNCc1ccc(-c2ccc3ncnc(Nc4ccc(OCc5cccc(F)c5)c(Cl)c4)c3c2)o1  IC50 (AC16 cardiomyocytes; mitochondrial membrane potential decrease; 1 h): 2.65 ± 0.3 µM
Cc1c(C)c2c(c(C)c1O)CCC(C)(COc1ccc(CC3SC(=O)NC3=O)cc1)O2 (centres unmarked)  IC50 (iPSC-derived hepatocytes B2; cell viability; 72 h, differentiation day 23): 50 µM
COc1c(Cl)cccc1Nc1c(-c2ccncc2OC[C@@H]2COCCO2)[nH]c2c1C(=O)NCC2  IC50 (Ba/F3 expressing HER2 wild type; cell growth, inhibitor, CellTiter-Glo): 0.0053 µM
CC1=C(C(=O)OC(C)C)C(c2cccc([N+](=O)[O-])c2)C(C(=O)OC2CN(C(c3ccccc3)c3ccccc3)C2)=C(N)N1 (centres unmarked)  IC50 (AC16 cardiomyocytes; mitochondrial membrane potential decrease; 1 h): 2.56 ± 0.44 µM
C=C1C[C@](OC)([C@H](OCOC/C=C/B2OC(CC)(CC)C(CC)(CC)O2)C(=O)NC[C@@H]2C[C@@H](OC)C(C)(C)[C@@H](C[C@@H](COC)OC)O2)O[C@H](C)[C@@H]1C  IC50 (U-87 MG; cell viability, sulforhodamine B; 72 h, 37 °C, without H2O2): 0.049 ± 0.025 µM
S=C(S)N1CCCC1  IC50 (differentiated LUHMES MT1G::HiBiT-G2 neurons; cell viability; 3D neurospheres; 24 h): 0.13 µM
C[C@H](Nc1ccc2c(c1)OCCn1cc(N3C(=O)OC[C@H]3C(F)F)nc1-2)C(N)=O  IC50 (CAL-51; growth rate inhibition, CellTiter-Glo; 120 h): 1.28 µM
COc1cccc2c1C(=O)c1c(O)c3c(c(O)c1C2=O)C[C@@](O)(C(=O)CO)C[C@@H]3O[C@H]1C[C@H](N)[C@H](O)[C@H](C)O1  IC50 (NCI-H1299; cell growth, WST-1; 72 h): 0.05 µM
Cc1nc2ccc(Br)cc2c(=O)n1/N=C/c1ccc(C(=O)O)cc1  IC50 (LoVo; cytotoxicity, LDH release; 24 h, 50% viability reduction): 651 ± 12.8 µM
COc1cc(F)ccc1-c1cc(Nc2cc(CS(C)(=N)=O)ccn2)ncc1F (centres unmarked)  IC50 (patient-derived organoid sample B; organoid viability; human; 96 h): 0.186 µM
CS(=O)(=O)CCNCc1ccc(-c2ccc3ncnc(Nc4ccc(OCc5cccc(F)c5)c(Cl)c4)c3c2)o1  IC50 (Ba/F3 expressing HER2 wild type; cell growth, inhibitor, CellTiter-Glo): 0.155 µM
CSCC[C@H](NC(=O)[C@H](CCCCN)NC(=O)[C@H](CCCNC(=N)N)NC(=O)[C@H](CO)NC(=O)[C@H](Cc1c[nH]c2ccccc12)NC(=O)[C@H](CCCNC(=N)N)NC(=O)[C@H](CC(C)C)NC(=O)[C@@H](N)CCSC)C(=O)N1CCC[C@H]1C(=O)N[C@@H](CS)C(=O)N[C@H](C(=O)N[C@@H](CO)C(N)=O)C(C)C  IC50 (SUP-T1; Erk phosphorylation, inhibitor, phospho flow cytometry; with: CXCL12 100 ng/mL): 1.23 ± 0.281 µM
CN1CCC(NC2CCc3[nH]c4c(C(N)=O)ccc(-c5ccccc5Cl)c4c3C2)CC1 (centres unmarked)  IC50 (B16-F10; cell growth; 96 h): 0.0216 µM
COC(=O)CN=c1scc(-c2ccccc2)n1-c1ccccc1OC  IC50 (Panc 03.27; cell viability, MTT; 72 h): 13.2 µM
C=CC(=O)Nc1cc(Nc2ncc(C(=O)OC(C)C)c(-c3cn(C)c4ccccc34)n2)c(OC)cc1N(C)CCN(C)C  IC50 (NCI-H2073 ASV knock-in; cell proliferation, CellTiter-Glo; 72 h, geometric mean): 0.00503 µM
CCCCC(CC)COC(=O)c1ccc(O)cc1 (centres unmarked)  IC50 (AC16 cardiomyocytes; mitochondrial membrane potential decrease; 1 h): 11.6 ± 0.76 µM
O=C(O)COCC(=O)O  IC50 (iPSC-derived hepatocytes B2; cell viability; 72 h, differentiation day 23): 8440 µM
CC[C@H](C)[C@H](N)C(=O)N[C@H](CC(C)C)C(=O)N[C@@H](CCCNC(=N)N)C(=O)N[C@@H](Cc1c[nH]c2ccccc12)C(=O)N[C@@H](CO)C(=O)N[C@@H](CCCNC(=N)N)C(=O)N[C@@H](CCCCN)C(=O)N[C@@H](CC(C)C)C(=O)N1CCC[C@H]1C(=O)N[C@@H](CS)C(=O)N[C@H](C(=O)N[C@@H](CO)C(N)=O)C(C)C  IC50 (SUP-T1; Erk phosphorylation, inhibitor, phospho flow cytometry; with: CXCL12 100 ng/mL): > 100 µM
C[C@H]1[C@H](OC(=O)CCC(=O)O)O[C@@H]2O[C@@]3(C)CC[C@H]4[C@H](C)CC[C@@H]1[C@@]24OO3  IC50 (primary AML blasts, MLL-rearranged; cell viability; 96 h, MSC co-culture, range over samples): 3.2 to 46.7 µM

A few entries again:
COC(=O)CN=c1scc(-c2ccccc2)n1-c1ccccc1OC  IC50 (Panc 03.27; cell viability, MTT; 72 h): 13.2 µM
CSCC[C@H](N)C(=O)N[C@H](CC(C)C)C(=O)N[C@@H](CCCNC(=N)N)C(=O)N[C@@H](Cc1c[nH]c2ccccc12)C(=O)N[C@@H](CO)C(=O)N[C@@H](CCCNC(=N)N)C(=O)N[C@@H](CCCCN)C(=O)N[C@@H](CC(C)C)C(=O)N1CCC[C@H]1C(=O)N[C@@H](CS)C(=O)N[C@H](C(=O)N[C@@H](CO)C(N)=O)C(C)C  IC50 (SUP-T1; Erk phosphorylation, inhibitor, phospho flow cytometry; with: CXCL12 100 ng/mL): > 100 µM
CCCCC(CC)COC(=O)c1ccc(O)cc1 (centres unmarked)  IC50 (AC16 cardiomyocytes; mitochondrial membrane potential decrease; 1 h): 11.6 ± 0.76 µM
C[C@H]1[C@H](OC(=O)CCC(=O)O)O[C@@H]2O[C@@]3(C)CC[C@H]4[C@H](C)CC[C@@H]1[C@@]24OO3  IC50 (primary AML blasts, MLL-rearranged; cell viability; 96 h, MSC co-culture, range over samples): 3.2 to 46.7 µM
